Measurements gathered from unrelated publications.
Every numbered part comes from another study and shows a few of its results, in no order. Positions count from the first letter of the parent shown.

Block 1
Target: CCND2, cyclin fold, Cln2 fusion (human)
Method: yeast growth competition, sequencing
Medium: yeast
Notes: weak parent motif
Reference: not given
Reading: higher = stronger binding
Measurement: normalised enrichment score
Starting sequence: MICAL3 docking peptide (human); LQLRRQLSFSEDS; partner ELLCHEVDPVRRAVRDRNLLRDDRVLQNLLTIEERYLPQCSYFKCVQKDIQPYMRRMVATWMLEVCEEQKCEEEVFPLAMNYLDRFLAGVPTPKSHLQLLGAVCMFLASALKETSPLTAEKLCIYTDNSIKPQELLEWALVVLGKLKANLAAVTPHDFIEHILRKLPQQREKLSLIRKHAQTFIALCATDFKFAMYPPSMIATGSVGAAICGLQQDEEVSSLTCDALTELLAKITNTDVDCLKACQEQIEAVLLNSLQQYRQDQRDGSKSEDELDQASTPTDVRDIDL
R5Y: 0.195
D12T: 0.194
Q2G: 0.0522
L3H: -0.187
R4K: 0.194
E11K: 0.375
E11I: -0.44
E11A: 0.228

Block 2
Target: Hepatocyte nuclear factor 3-alpha (Foxa1, Mus musculus, UniProt P35582, residues 1-468, full length assumed)
UniProt P35582, sequence (whole entry, looked up): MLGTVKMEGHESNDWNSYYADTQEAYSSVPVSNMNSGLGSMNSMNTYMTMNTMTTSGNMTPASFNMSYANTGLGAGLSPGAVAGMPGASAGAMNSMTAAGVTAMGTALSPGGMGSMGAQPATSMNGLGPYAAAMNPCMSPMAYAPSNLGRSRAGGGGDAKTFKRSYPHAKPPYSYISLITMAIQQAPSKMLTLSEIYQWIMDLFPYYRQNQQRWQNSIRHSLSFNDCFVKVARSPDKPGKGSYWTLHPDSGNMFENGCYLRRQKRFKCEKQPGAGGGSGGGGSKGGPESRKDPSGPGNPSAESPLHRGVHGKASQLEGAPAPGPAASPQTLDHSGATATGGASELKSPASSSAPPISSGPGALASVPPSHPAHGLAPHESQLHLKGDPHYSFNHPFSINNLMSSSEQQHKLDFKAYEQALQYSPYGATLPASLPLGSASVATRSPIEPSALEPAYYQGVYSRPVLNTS
Method: EMSA with sequencing
Molecule type: double-stranded DNA, one strand shown
Medium: in vitro
Tested at: 10 and 20 nM
Notes: whole designed probe, mean of two concentrations, ends assumed
Reference: negative control set to 0
Reading: higher = stronger binding
Measurement: normalised bound fraction
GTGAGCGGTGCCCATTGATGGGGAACATGGTAGAGGGAGCTGGCCCTGCATACTGGTATCAGCGTAAAGAACAGTCAGGCGTGCCTGTGAGCAAGGCAGGGCCGTGACTCAGACTTCAGTAAACACGAAGTGTGAGTTCAACCCAGAAAAATGCTGTCTCAGGTTTTGCAGACTTGTCAGAAATAAATCACCAACTTTAGGAAGCTTTGGTGCAAGAGCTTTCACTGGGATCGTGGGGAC: 0.0713 ratio
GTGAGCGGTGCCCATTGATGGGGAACATAACTGTTCTTTCCATCCACATATAATTTTTCTAATCTGTAATGAGTTGGATTTTCATTTATTCTGTACAGAGAGTACTAAGTATTTACTGCATGTTTACTTTTTAAATATACCATCTATATGCTACTTGGCCCCTCTACACTGCTTTCTTGGAAATAAAATACTGTGCCTATAACTGCTCCAAGTACATAATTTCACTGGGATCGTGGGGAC: 0.348 ratio
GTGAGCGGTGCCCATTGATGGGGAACATCTTCCCCCTCTTCCTTGCCCCACCAGCTCACCTTCCCGGGTTATTTGCAGATAGGAAAATAAATAAAGCCGGCATTCGTTAACCCTCGATGAATCATGACTGCCAGAGCAAACAGATCTAACATGGTCCTTTGGCGACGCCAGGCTCCGGGAGAGCAAAGCACCGTGTCAGGGCCATGATCCGGGGTGGCCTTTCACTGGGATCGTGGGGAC: 0.39 ratio
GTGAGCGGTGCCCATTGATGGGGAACTTTAGTACTTTAAAATTTTCCAAAGTGCTTTTCCTTGTCTTATTATAACAATTGCCAGCATTTGGTCAGCACTCTAGAGGTTATAAAGTACTTAGAGTACACTGTCTCCTATGACATCACAGCAATGCTGTGGGTTATTATTACTTGACTCATTTTGCAGGCAAGGAAGCTAAGGTTCAGGAATGCTAAATGATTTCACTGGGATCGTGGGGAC: -0.0216 ratio
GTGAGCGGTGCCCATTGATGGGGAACATCTTCCCCCTCTTCCTTGCCCCACCAGCTCACCTTCCCGGGTTATTTGCAGATAGGAAAATAAATAAAGCCGGCATTCGTTAACCCTCTTCTGGCGCAAACTGCTGTTTGCTCTGGATGAATCATGGTCCTTTGGCGACGCCAGGCTCCGGGAGAGCAAAGCACCGTGTCAGGGCCATGACTGCGGGTGGCCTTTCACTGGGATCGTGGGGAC: 0.331 ratio
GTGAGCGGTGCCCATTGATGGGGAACCTTACATGCAATTGCTTAATATAATATAGCTTTCCTCTCAATTTTACAAAATTAAGATCTTACTTGGCTAATTCTAAGACACCTAGGAACAGTGTAATTTTGGCTCAGAATTGCCAGTGCCCAGACTGGAATTTCACTGAATGAATATAATCATTTTCTCCTTAAAGTAACCTAAAATAAACCCCTCCAAAAATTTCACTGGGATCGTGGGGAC: 0.0172 ratio
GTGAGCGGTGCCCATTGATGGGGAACTCTCCCCTGCAGGAGTTTGGACTAATCAGGTCACTACACCCTGACACAGCAGTCTCCAGTCTCTACCACTCATTGTTTGCAACATGACGTAATGTCAACAGACCACAGAGAAGTTAGCAACAGGGAAGGGAAAACACTTTAATCTCAAGGTCATCCCCAGGGTTCAGCAGGACATATATCCTATATCGAATCATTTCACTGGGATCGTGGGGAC: 0.364 ratio
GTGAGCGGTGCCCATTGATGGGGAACTCTTGGTCTGCAGTCTACCCCATGTCATTGTCCCTTGGGTTTTCACTTATACACTTGGCTTTCTGTCCATGATTTAAGTAAACAAAAAAAAAGTAAACATGGCAGCACAATGTTAATAGGCATGTCTACCTGCTGCTCTCCCAAGCCCAGCCTTTTCACACTGAAGTCATGCTAGGAGCTAGATGTGTTTGTCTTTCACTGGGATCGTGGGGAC: 0.534 ratio

Block 3
Target: Max-binding protein MNT, bHLH-zipper, MAX partner unstated (MNT, Homo sapiens, UniProt Q99583, residues 220-300)
Method: protein-binding microarray
Molecule type: double-stranded DNA, one strand shown
Medium: in vitro
Tested at: not given
Notes: k-mer, scored over probes, only values ≥0.25
Reading: higher = stronger binding
Measurement: E-score
Target sequence (chain): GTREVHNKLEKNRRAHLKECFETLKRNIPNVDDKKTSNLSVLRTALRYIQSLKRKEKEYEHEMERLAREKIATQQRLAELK
ACGCGTGG: 0.453
ATCACGCC: 0.285
AGCGCATG: 0.42
ACCCCGCC: 0.38
ACGCGGTA: 0.347
ATCATGTG: 0.443
CCCCACGC: 0.412
CGCCACAC: 0.285

Single results of other studies
FMYALSRAF
binding (HLA class I histocompatibility antigen, C alpha chain, allele C*04:01 (Homo sapiens, UniProt P10321); peptide-MHC binding; peptide; concentration not given): inactive

Repeated from above (block 2):
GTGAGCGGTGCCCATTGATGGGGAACCTTACATGCAATTGCTTAATATAATATAGCTTTCCTCTCAATTTTACAAAATTAAGATCTTACTTGGCTAATTCTAAGACACCTAGGAACAGTGTAATTTTGGCTCAGAATTGCCAGTGCCCAGACTGGAATTTCACTGAATGAATATAATCATTTTCTCCTTAAAGTAACCTAAAATAAACCCCTCCAAAAATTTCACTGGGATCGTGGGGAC: 0.0172 ratio
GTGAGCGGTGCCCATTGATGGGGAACTCTCCCCTGCAGGAGTTTGGACTAATCAGGTCACTACACCCTGACACAGCAGTCTCCAGTCTCTACCACTCATTGTTTGCAACATGACGTAATGTCAACAGACCACAGAGAAGTTAGCAACAGGGAAGGGAAAACACTTTAATCTCAAGGTCATCCCCAGGGTTCAGCAGGACATATATCCTATATCGAATCATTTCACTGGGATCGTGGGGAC: 0.364 ratio
